Measurements pooled from the literature.
Protocols differ between the studies behind these lines. ± marks the error that the study gave.
Organism: Plasmodium falciparum

| Compound | test | test system | conditions | scale | measurement | result |
| --- | --- | --- | --- | --- | --- | --- |
| CNS(=O)(=O)c1ccccc1Nc1nc(Nc2cc(OC)c(OC)cc2C)ncc1Br | LDH readout | 3D7 Hyp1-Nluc | 20 µM, 72 h | baseline: DMSO | parasite growth | 10.8% |
| CCn1nccc1Nc1ccnc2ccc(-c3ccc(S(=O)(=O)N4CCOCC4)cc3)cc12 | parasite growth, SYBR Green | W2 |  |  | EC50 | 3200 nM |
| COCC(=O)N1CCC[C@H](C(=O)NCc2nc(-c3ccc(OC(C)C)cc3)cs2)C1 | SYBR Green growth | asexual blood-stage parasites, 3D7 | 72 h |  | EC50 | 130 ± 21 nM |
| CC1=C(Cn2cc([Si](C)(C)C)nn2)C(=O)c2ccccc2C1=O |  | NF54 |  | baseline: L6 CC50 over IC50 | selectivity index | 2.5 |
| COc1cc2c(cc1O)c(=O)n1ccc3cccc2c31 | parasite growth |  | concentration not given |  | activity class | inactive |
| O=S(=O)(c1ccc(-c2ccc3nccc(Nc4ccccn4)c3c2)cc1)N1CCOCC1 | parasite growth, SYBR Green | TM91C235 |  |  | EC50 | 670 nM |
| CC1=C(Cc2cn(Cc3ccccc3)nn2)C(=O)c2ccccc2C1=O |  | NF54 |  | baseline: L6 CC50 over IC50 | selectivity index | 55.2 |
| N=C(N)NCCCCC(=O)Nc1cc(C(F)(F)F)cc(NC(=O)c2cc(C(=O)Nc3cc(C(F)(F)F)cc(NC(=O)CCCCNC(=N)N)c3O[C@@H]3CCNC3)ncn2)c1O[C@@H]1CCNC1 | erythrocyte invasion |  | 7.78 µM |  | inhibition | 100% |
| CCONC(=O)N1CCC[C@H](C(=O)N[C@H](C)c2nc(-c3ccc(C#N)cc3)cs2)C1 | SYBR Green growth | asexual blood-stage parasites, 3D7 | 72 h |  | EC50 | 43 ± 4.6 nM |
| CCC1=C(CC)/C(=C/c2cc(-c3ccc(OC(F)(F)F)cc3)c(C)[nH]2)N=C1c1ccc[nH]1 | parasite growth, SYBR Green fluorescence | Dd2 (multidrug-resistant), asexual blood stage | 72 h |  | IC50 | > 2500 nM |
| COc1cc(OC)c(CCNC(=O)c2cn3cc(-c4cc(OCC(=O)O)ccc4OC)nc3s2)c(OC)c1 | LDH readout | 3D7 Hyp1-Nluc | 2 µM, 72 h | baseline: DMSO | parasite growth | 92.8% |
| O=S(=O)(c1ccc(-c2ccc3nccc(Nc4ccc(OCc5cccc(F)c5)cc4)c3c2)cc1)N1CCOCC1 | parasite growth, SYBR Green | W2 |  |  | EC50 | 1700 nM |
| CCn1cc(C2CC2)c2c(CN3CCCC(F)(F)C3)n(C)nc2c1=O | parasite growth | 3D7 |  |  | EC50 | 100 nM |
| CCN(CC)CCCC(C)Nc1ccnc2cc(Cl)ccc12 (stereo not drawn) | Giemsa-stained smears | red blood cells, 3D7 Hyp1-Nluc | 10 × EC50, 8 h |  | extracellular parasites | 3.5% |
| Cn1nc2c(=O)n(C3CC3)ncc2c1[C@](N)(c1ccc(C(F)(F)F)c(Cl)c1)C1CC1 | parasite reduction ratio | 3D7 | concentration not given, linear phase after lag |  | killing curve slope | -0.064 |
| CC1=C(C)/C(=C/c2cc(Cc3ccc(Cl)cc3)c(C)[nH]2)N=C1c1ccc[nH]1 | parasite growth, SYBR Green fluorescence | Dd2 (multidrug-resistant), asexual blood stage | 72 h |  | IC50 | 1260 nM |
| O=C(CCCCCONC(=O)c1nc(-c2ccccc2[N+](=O)[O-])cs1)NO |  | 3D7 |  | baseline: NFF cells over P. falciparum | selectivity ratio | 6 |
| O=C(CC1NCCCC1O)Cn1cnc2cc(Br)c(Cl)cc2c1=O (stereo not drawn) | parasite growth | cPRS conditional knockdown line | 72 h, with: 50 nM anhydrotetracycline |  | IC50 | 0.1 nM |
| COCC(=O)N1CC[C@H](C(=O)NCc2nc(-c3ccccc3)cs2)C1 | SYBR Green growth | asexual blood-stage parasites, 3D7 | 72 h |  | EC50 | > 5000 nM |
| COC1=C(OC)/C(=C/c2[nH]c(Cc3ccc(OC(F)(F)F)cc3)cc2Cc2ccc(OC(F)(F)F)cc2)N=C1c1ccc[nH]1 | parasite growth, SYBR Green fluorescence | Dd2 (multidrug-resistant), asexual blood stage | 72 h |  | IC50 | 62.9 nM |
| O=S(=O)(c1ccc(-c2ccc3nccc(Nc4nnc(C5CC5)s4)c3c2)cc1)N1CCOCC1 | parasite growth, SYBR Green | D6 |  |  | EC50 | 590 nM |
| COc1ccc(CNc2nc(-c3ccc(C(=O)O)nc3)nc3sc4c(c23)CCCC4)cc1Cl | schizont egress, Nluc release | Hyp1-Nluc | 10 x growth EC50, 4 h |  | inhibition | 100% |
| CCOCCOc1ccnc2ccc(-c3ccc(S(=O)(=O)N4CCOCC4)cc3)cc12 | parasite growth, SYBR Green | TM91C235 |  |  | EC50 | 13000 nM |

| Compound | test | test system | conditions | scale | measurement | result |
| --- | --- | --- | --- | --- | --- | --- |
| Cn1nc2c(=O)n(C3CC3)ccc2c1[C@](O)(c1ccc(C(F)(F)F)nc1)C1CC1 | parasite growth | 3D7 |  |  | EC50 | 6.31 nM |
| Cn1cc(-c2cnc3[nH]cc(-c4cn(Cc5cccc(F)c5F)nn4)c3c2)cn1 | LDH readout | 3D7 Hyp1-Nluc | 20 µM, 72 h | baseline: DMSO | parasite growth | 7.38% |
| Cc1cc(Nc2ccc(S(F)(F)(F)(F)F)cc2)n2nc(C(C)(F)F)nc2n1 | parasite growth |  |  |  | EC50 | 9.5 nM |
| COC1=CC(c2ccc[nH]2)=N/C1=C\c1cc(Cc2ccc(OC(F)(F)F)cc2)c(C)[nH]1 | parasite growth, SYBR Green fluorescence | Tm90-C2B (atovaquone-resistant), asexual blood stage | 72 h |  | IC50 | 8.88 nM |
| O=S(=O)(c1ccc(-c2ccc3nccc(Nc4cccnc4)c3c2)cc1)N1CCOCC1 | parasite growth, SYBR Green | W2 |  |  | EC50 | 1000 nM |
| COc1cc(C(=O)N(C)C)ccc1-c1cc2nccc(-c3ccc4ccncc4c3)c2o1 | schizont egress, Nluc release | Hyp1-Nluc | 10 x growth EC50, 4 h |  | inhibition | 79.3% |
| O=S(=O)(c1ccc(-c2ccc3nccc(Nc4cnccn4)c3c2)cc1)N1CCOCC1 | parasite growth, SYBR Green | D6 |  |  | EC50 | 4600 nM |
| CCOCC(=O)N1CC[C@H](C)[C@H](C(=O)NCc2nc(-c3ccc(C)nc3)cs2)C1 (racemic) | SYBR Green growth | asexual blood-stage parasites, 3D7 | 72 h |  | EC50 | 980 ± 190 nM |
| COc1ccc(OCCCO)cc1-c1cn2cc(-c3nnc(NCCCCc4ccccc4)o3)ccc2n1 | LDH readout | 3D7 Hyp1-Nluc | 20 µM, 72 h | baseline: DMSO | parasite growth | 5.19% |
| CC(C)COCC(=O)N1CCC[C@H](C(=O)NCc2nc(-c3ccccc3)cs2)C1 | SYBR Green growth | asexual blood-stage parasites, 3D7 | 72 h |  | EC50 | 740 ± 150 nM |
| CC/N=C(\c1ccc(OC)c(OC)c1)N1CCCc2cc(C3=NNC(=O)SC3C)ccc21 (stereo not drawn) | LDH readout | 3D7 Hyp1-Nluc | 20 µM, 72 h | baseline: DMSO | parasite growth | -4.04% |
| COC1=C(OC)/C(=C/c2cc(-c3ccc(OC(F)(F)F)cc3)c(C)[nH]2)N=C1c1ccc[nH]1 | parasite growth, SYBR Green fluorescence | Dd2 (multidrug-resistant), asexual blood stage | 72 h |  | IC50 | 510 nM |
| CNS(=O)(=O)c1ccccc1Nc1nc(Nc2ccc(N3CCOCC3)cc2OC)ncc1Br | nanoluciferase readout | 3D7 Hyp1-Nluc | 2 µM, 72 h | baseline: DMSO | parasite growth | 2.1% |
| CC1=C(C)/C(=C/c2[nH]c(Cc3ccc(OC(F)(F)F)cc3)cc2Cc2ccc(OC(F)(F)F)cc2)N=C1c1ccc[nH]1 | parasite growth, SYBR Green fluorescence | Tm90-C2B (atovaquone-resistant), asexual blood stage | 72 h |  | IC50 | 2370 nM |
| Cc1nnc(-c2ccc3ccn(CC(=O)Nc4ccccc4Cl)c3c2)o1 | luminescence | red blood cells, 3D7 Hyp1-Nluc | 10 × EC50, 8 h | baseline: DMSO | fold lysis | 2 fold |
| COCC(=O)N1CCC[C@H](C(=O)Nc2nc(-c3ccccc3)cs2)C1 | SYBR Green growth | asexual blood-stage parasites, 3D7 | 72 h |  | EC50 | > 5000 nM |
| CC1=C(C)/C(=C/c2cc(-c3ccc(OC(F)(F)F)cc3)c(C)[nH]2)N=C1c1ccc[nH]1 | parasite growth, SYBR Green fluorescence | Dd2 (multidrug-resistant), asexual blood stage | 72 h |  | IC50 | 2370 nM |
| O=S(=O)(c1ccc(-c2ccc3nccc(Nc4ccc5[nH]nnc5c4)c3c2)cc1)N1CCOCC1 | parasite growth, SYBR Green | D6 |  |  | EC50 | 180 nM |
| NC(N)=Nc1ccc(-c2ccc(-c3ccc(N=C(N)N)c(Cl)c3)o2)cc1Cl | erythrocyte invasion |  | 3.94 µM |  | inhibition | 100% |
| CCc1nc(N)nc(N)c1-c1ccc(Cl)cc1 | parasite reduction ratio | 3D7 |  |  | time to kill 99.9% | 56 h |
| CCOCC(=O)N1CCN(C(=O)OC(C)(C)C)C(C(=O)NCc2nc(-c3ccccc3)cs2)C1 (stereo not drawn) | SYBR Green growth | asexual blood-stage parasites, 3D7 | 72 h |  | EC50 | > 5000 nM |
| Cl.N=C(CC(O)c1cc2c(F)cc(F)cc2c2cc(C(F)(F)F)ccc12)Nc1ccc(Br)cc1 (stereo not drawn) | parasite reduction ratio | 3D7 ring stage | 10-fold IC50 |  | parasite clearance time | ≤ 72 h |

Some of these lines once more:
| Compound | test | test system | conditions | scale | measurement | result |
| --- | --- | --- | --- | --- | --- | --- |
| COCC(=O)N1CCC[C@H](C(=O)Nc2nc(-c3ccccc3)cs2)C1 | SYBR Green growth | asexual blood-stage parasites, 3D7 | 72 h |  | EC50 | > 5000 nM |
| CC1=C(C)/C(=C/c2cc(-c3ccc(OC(F)(F)F)cc3)c(C)[nH]2)N=C1c1ccc[nH]1 | parasite growth, SYBR Green fluorescence | Dd2 (multidrug-resistant), asexual blood stage | 72 h |  | IC50 | 2370 nM |
| O=S(=O)(c1ccc(-c2ccc3nccc(Nc4ccc5[nH]nnc5c4)c3c2)cc1)N1CCOCC1 | parasite growth, SYBR Green | D6 |  |  | EC50 | 180 nM |
| NC(N)=Nc1ccc(-c2ccc(-c3ccc(N=C(N)N)c(Cl)c3)o2)cc1Cl | erythrocyte invasion |  | 3.94 µM |  | inhibition | 100% |
| CCc1nc(N)nc(N)c1-c1ccc(Cl)cc1 | parasite reduction ratio | 3D7 |  |  | time to kill 99.9% | 56 h |
| CCOCC(=O)N1CCN(C(=O)OC(C)(C)C)C(C(=O)NCc2nc(-c3ccccc3)cs2)C1 (stereo not drawn) | SYBR Green growth | asexual blood-stage parasites, 3D7 | 72 h |  | EC50 | > 5000 nM |
| Cl.N=C(CC(O)c1cc2c(F)cc(F)cc2c2cc(C(F)(F)F)ccc12)Nc1ccc(Br)cc1 (stereo not drawn) | parasite reduction ratio | 3D7 ring stage | 10-fold IC50 |  | parasite clearance time | ≤ 72 h |
